Experimental data collected from several papers.
Protocols differ between the studies behind these lines. pEC50, pIC50: −log10 of the molar value. ≈ marks a conversion by molar mass, not a printed value.
Sequence of UniProt P06239 (whole entry, looked up): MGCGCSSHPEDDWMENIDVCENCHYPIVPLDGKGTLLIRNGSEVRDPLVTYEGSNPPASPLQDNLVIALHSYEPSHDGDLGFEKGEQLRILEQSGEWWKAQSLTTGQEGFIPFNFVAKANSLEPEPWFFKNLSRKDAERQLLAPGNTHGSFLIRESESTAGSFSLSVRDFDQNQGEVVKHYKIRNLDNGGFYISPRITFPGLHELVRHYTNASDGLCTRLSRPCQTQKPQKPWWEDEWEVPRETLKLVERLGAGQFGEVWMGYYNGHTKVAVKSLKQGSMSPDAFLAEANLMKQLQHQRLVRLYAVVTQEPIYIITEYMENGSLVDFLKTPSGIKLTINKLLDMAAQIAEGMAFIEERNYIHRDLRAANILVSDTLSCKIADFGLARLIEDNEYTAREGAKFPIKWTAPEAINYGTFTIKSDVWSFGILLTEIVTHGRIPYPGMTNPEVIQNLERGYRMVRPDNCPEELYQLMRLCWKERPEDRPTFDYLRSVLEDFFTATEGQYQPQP
Sequence of UniProt Q99683 (whole entry, looked up): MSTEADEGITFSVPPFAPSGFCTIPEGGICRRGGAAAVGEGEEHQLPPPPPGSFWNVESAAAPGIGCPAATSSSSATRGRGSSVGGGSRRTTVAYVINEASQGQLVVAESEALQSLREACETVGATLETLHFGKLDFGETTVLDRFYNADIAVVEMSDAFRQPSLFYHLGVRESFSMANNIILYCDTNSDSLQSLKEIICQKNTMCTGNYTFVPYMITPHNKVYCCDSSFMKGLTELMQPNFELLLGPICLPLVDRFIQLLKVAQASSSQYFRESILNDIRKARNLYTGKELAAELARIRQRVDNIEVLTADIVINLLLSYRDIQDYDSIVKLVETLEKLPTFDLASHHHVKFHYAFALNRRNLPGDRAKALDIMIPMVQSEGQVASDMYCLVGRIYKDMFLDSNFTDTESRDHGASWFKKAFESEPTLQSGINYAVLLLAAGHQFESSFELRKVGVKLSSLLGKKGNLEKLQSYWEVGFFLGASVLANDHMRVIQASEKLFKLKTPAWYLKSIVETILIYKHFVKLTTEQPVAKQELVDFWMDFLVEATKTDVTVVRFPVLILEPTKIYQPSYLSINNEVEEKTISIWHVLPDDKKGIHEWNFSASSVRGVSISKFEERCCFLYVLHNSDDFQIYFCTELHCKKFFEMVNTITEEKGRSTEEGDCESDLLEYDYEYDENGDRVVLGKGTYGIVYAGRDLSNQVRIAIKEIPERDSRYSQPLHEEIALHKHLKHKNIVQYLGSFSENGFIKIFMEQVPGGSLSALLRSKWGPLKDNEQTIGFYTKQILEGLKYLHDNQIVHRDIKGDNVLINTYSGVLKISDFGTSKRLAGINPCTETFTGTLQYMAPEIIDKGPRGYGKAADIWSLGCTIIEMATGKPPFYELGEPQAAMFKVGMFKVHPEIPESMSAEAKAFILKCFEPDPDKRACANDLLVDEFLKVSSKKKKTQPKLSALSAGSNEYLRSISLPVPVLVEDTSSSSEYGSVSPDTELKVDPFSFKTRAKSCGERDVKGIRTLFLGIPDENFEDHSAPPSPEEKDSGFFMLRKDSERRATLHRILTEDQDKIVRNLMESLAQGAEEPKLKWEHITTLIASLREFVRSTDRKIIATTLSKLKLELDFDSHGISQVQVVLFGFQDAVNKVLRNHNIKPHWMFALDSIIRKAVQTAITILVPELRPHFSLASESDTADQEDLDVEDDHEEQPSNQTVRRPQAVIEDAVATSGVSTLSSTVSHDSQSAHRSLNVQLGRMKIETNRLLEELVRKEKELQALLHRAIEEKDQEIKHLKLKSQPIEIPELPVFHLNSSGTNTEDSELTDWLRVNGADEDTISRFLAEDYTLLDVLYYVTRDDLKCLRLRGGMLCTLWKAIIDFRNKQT
Sequence of UniProt O94768 (whole entry, looked up): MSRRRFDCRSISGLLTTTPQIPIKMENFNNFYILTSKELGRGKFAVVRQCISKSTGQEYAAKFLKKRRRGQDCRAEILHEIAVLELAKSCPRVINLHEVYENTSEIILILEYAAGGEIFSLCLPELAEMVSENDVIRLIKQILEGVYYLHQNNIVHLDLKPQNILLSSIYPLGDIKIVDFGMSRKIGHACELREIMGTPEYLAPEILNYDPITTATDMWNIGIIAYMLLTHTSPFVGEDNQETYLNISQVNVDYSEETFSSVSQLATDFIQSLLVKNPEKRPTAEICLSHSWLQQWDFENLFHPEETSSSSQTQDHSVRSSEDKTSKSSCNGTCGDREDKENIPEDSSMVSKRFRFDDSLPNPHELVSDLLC

SMILES	tested on	assay	test system	setting	measurement	value
O=C(NNc1cccc(Cl)c1)c1nnc(CC23CC4CC(CC(C4)C2)C3)o1	Rhizoctonia solani	microbial growth		50 µg/mL	inhibition	61.2%
C=C(C)[C@]12C[C@@H](C)[C@@]34O[C@](CCCCCCCCC)(O[C@@H]1[C@@H]3[C@@H]1O[C@]1(CO)[C@@H](O)[C@]1(O)C(=O)C(C)=C[C@H]14)O2	Human immunodeficiency virus 1	viral replication	MT4		pIC50	8.18
CCOC(=O)c1cc(-c2cccc(NC(=O)Nc3ccc(Cl)c(Cl)c3)c2)on1	Mycolicibacterium fortuitum	microbial growth, broth dilution	ATCC6841	48 h	MIC	> 64 µg/mL
COc1ncccc1-c1cnn2ccc(N3CCN(C(=O)OC(C)C)CC3)nc12	STK17B (Homo sapiens, UniProt O94768)	binding, competition with immobilised ligand		1 µM	remaining binding	30%
[2H]c1c([2H])c([C@]2([2H])CCCN2C(=O)C(C)(C)Oc2ccc3cn[nH]c3c2)c([2H])c([2H])c1C([2H])([2H])[2H]	MAP3K5 (Homo sapiens, UniProt Q99683)	binding, competition with immobilised ligand		1 µM	remaining binding	85%
C[C@@H]1[C@H](O)[C@@H](C)/C=C/C=C/C=C/C=C/C=C/C=C/C=C/[C@H](O[C@@H]2O[C@H](C)[C@@H](O)[C@H](N)[C@@H]2O)C[C@@H]2O[C@](O)(C[C@@H](O)C[C@@H](O)[C@H](O)CC[C@@H](O)C[C@@H](O)CC(=O)O[C@H]1C)C[C@H](O)[C@H]2C(=O)O	Candida albicans	microbial killing, broth dilution	SP3903	48 h	MFC	1 µM
COc1ccccc1Cn1ccnc1SCC(=O)Nc1cc(C(F)(F)F)ccc1Cl	Plasmodium falciparum	parasite growth, SYBR Green	3D7	72 h	pEC50	6.40
CC(=O)c1c(O)c(C)c(O)c(Cc2c(O)c3c(c(C(=O)/C=C/c4ccccc4)c2O)OC(C)(C)C=C3)c1O	Betacoronavirus 1	viral replication	MRC5, OC43		pIC50	5.44
OC(Cn1cncn1)(Cn1cncn1)c1ccc(F)cc1F	Candida albicans	microbial killing, broth dilution	58288	48 h	MFC	> 64 µM
COC(=O)c1cc(-c2cccc(NC(=S)Nc3ccc(F)c(Cl)c3)c2)on1	Klebsiella pneumoniae	microbial growth, broth dilution	BAA1705		MIC	> 64 µg/mL
Cc1nn(C)cc1-c1nc2c(N3CCN(Cc4ccc(Cl)cc4)CC3)c(Cl)cnc2[nH]1	EGFR (Homo sapiens, UniProt P00533, L858R)	binding, competition with immobilised ligand		1 µM	remaining binding	100%
C#Cc1cccc(C=NNC(=O)c2ccc(Br)cc2Br)c1O	Cryptococcus neoformans	microbial growth, broth dilution		pH 7.4	MIC80	0.015 µg/mL (≈ 0.0355 µM)
CC(=O)N1CCN(c2ccc(OCC3COC(Cn4ccnc4)(c4ccc(Cl)cc4Cl)O3)cc2)CC1 (centres unmarked)	Candida albicans	microbial killing, broth dilution	SP3876	48 h	MFC	> 64 µM
O=c1[nH]c2cc(-c3ccc(F)cc3)sc2c(=O)n1O	Human betaherpesvirus 5	viral replication, inhibitor		10 µM, 7 days	inhibition	10%
COc1ccc(-n2ccnc2SCC(=O)Nc2cccc(C(F)(F)F)c2)c(OC)c1	Plasmodium falciparum	parasite growth, SYBR Green	3D7	72 h	pEC50	5.76
COC(=O)c1cc(-c2cccc(NC(=O)Nc3cccc(Br)c3)c2)on1	Mycolicibacterium fortuitum	microbial growth, broth dilution	ATCC6841	48 h	MIC	> 64 µg/mL
O=C(NNc1cc(F)ccc1F)c1nnc(C23CC4CC(CC(C4)C2)C3)o1	Rhizoctonia solani	microbial growth			EC50	7.33 µg/mL
COC(=O)c1cc(-c2cccc(NC(=O)Nc3cccc(C(F)(F)F)c3)c2)on1	Mycolicibacterium fortuitum	microbial growth, broth dilution	ATCC6841	48 h	MIC	> 64 µg/mL
O=C(NNc1ccccc1)c1nnc(CC23CC4CC(CC(C4)C2)C3)o1	Rhizoctonia solani	microbial growth		50 µg/mL	inhibition	49.7%
C#Cc1ccc(C=NNC(=O)c2ccc(COCCC)cc2)c(O)c1	Candida albicans	microbial growth		pH 7.4	MIC80	0.5 µg/mL (≈ 1.49 µM)
Nc1ncnc2c([C@@H]3N[C@H](CO)[C@@H](O)[C@H]3O)c[nH]c12	Dengue virus	viral replication	Vero 76, DENV2	296 µM	inhibition	100%
C#Cc1ccc(O)c(C=NNC(=O)c2ccc(COC)cc2)c1	Cryptococcus neoformans	microbial growth, broth dilution		pH 7.4	MIC80	0.015 µg/mL (≈ 0.0486 µM)

SMILES	tested on	assay	test system	setting	measurement	value
C[N+]1=C2C=C(N/C=C/c3ccc(O)cc3)C(=O)c3[nH]cc(c32)CC1	Plasmodium falciparum	parasite growth, SYBR Green	W2	blood stage	pIC50	6.01
C#Cc1cc(O)c(C=NNC(=O)c2ccc(Br)c(Br)c2)cc1C#C	Cryptococcus neoformans	microbial growth, broth dilution		pH 7.4	MIC80	0.12 µg/mL (≈ 0.269 µM)
O=C(NNc1cc(F)ccc1F)c1nnc(CC23CC4CC(CC(C4)C2)C3)o1	Rhizoctonia solani	microbial growth			EC50	6.96 µg/mL
Nc1ncc(-c2nc(N3CCOCC3)nc(N3CCOCC3)n2)c(C(F)F)n1	LCK (Homo sapiens, UniProt P06239)	binding, competition with immobilised ligand		10 µM	remaining binding	46%
COc1ccccc1NC(=O)CSc1nc2cccnc2n1-c1ccccc1OC	Plasmodium falciparum	parasite growth, SYBR Green	3D7	72 h	pEC50	6.54
C#Cc1ccc(O)c(C=NNC(=O)c2ccc(C3(C(F)(F)F)N=N3)cc2)c1	Cryptococcus neoformans	microbial killing			MFC	1 µg/mL
CCN(CC)CCCC(C)Nc1ccnc2cc(Cl)ccc12 (centres unmarked)	Plasmodium falciparum	parasite growth, SYBR Green	W2	48 h, drug-resistant strain, blood stage	pIC50	6.79
COC(=O)c1cc(-c2cccc(NC(=O)Nc3cc(Cl)ccc3Cl)c2)on1	Mycobacteroides chelonae	microbial growth, broth dilution	ATCC35752	48 h	MIC	> 64 µg/mL
C=CCn1c(SCC(=O)Nc2cc(C)ccc2OC)nc2sc(C)cc2c1=O	Plasmodium falciparum	parasite growth, SYBR Green	3D7	72 h	pEC50	5.92
COC(=O)c1cc(-c2cccc(NC(=S)Nc3ccc(C)cc3)c2)on1	Mycolicibacterium fortuitum	microbial growth, broth dilution	ATCC6841	48 h	MIC	> 64 µg/mL
O[C@H](CNCCCC(F)(F)F)c1cc(Cl)cc2c1-c1ccc(Cl)cc1C2	Plasmodium falciparum	parasite growth, SYBR Green	W2	48 h, drug-resistant strain, blood stage	pIC50	8.39
CC(c1ccc(OC(F)(F)F)cc1)c1nn2c(-c3cccs3)nnc2s1 (centres unmarked)	Plasmodium falciparum	parasite growth, SYBR Green	3D7	72 h	pEC50	6.77
COC(=O)c1cc(-c2cccc(NC(=O)Nc3ccc(C)cc3)c2)on1	Mycobacteroides chelonae	microbial growth, broth dilution	ATCC35752	48 h	MIC	> 64 µg/mL
C#Cc1ccc(O)c(C=NNC(=O)c2ccc(Br)cc2)c1	Cryptococcus neoformans	microbial growth, broth dilution		pH 7.4	MIC80	0.007 µg/mL (≈ 0.0204 µM)
O=C(NNc1ccc(Cl)c(Cl)c1)c1nnc(C23CC4CC(CC(C4)C2)C3)o1	Rhizoctonia solani	microbial growth			EC50	> 12.5 µg/mL
Cc1noc(-c2cccs2)c1C(=O)NCCc1cccc(Cl)c1	Plasmodium falciparum	parasite growth, SYBR Green	3D7	72 h	pEC50	5.88
COC(=O)c1cc(-c2ccc(NC(=O)Nc3ccc(Cl)c(Cl)c3)cc2)on1	Pseudomonas aeruginosa	microbial growth, broth dilution	ATCC27853		MIC	> 64 µg/mL
C#Cc1ccc(O)c(C=NNC(=O)c2ccc(Br)cc2Br)c1	Candida albicans	microbial growth		pH 7.4	MIC80	2 µg/mL (≈ 4.74 µM)
COCC(C)n1c(SCC(=O)Nc2cc(C(F)(F)F)ccc2Cl)nc2ccccc2c1=O (centres unmarked)	Plasmodium falciparum	parasite growth, SYBR Green	3D7	72 h	pEC50	6.39
C#Cc1ccc(C=NNC(=O)c2ccc(COCC)cc2)c(O)c1	Candida albicans	microbial growth		pH 7.4	MIC80	1 µg/mL (≈ 3.1 µM)
O=C(c1ccc(Cl)cc1)N1CCCC(C(=O)N(Cc2nnc(-c3ccccc3Cl)o2)C2CC2)C1 (centres unmarked)	Plasmodium falciparum	parasite growth, SYBR Green	3D7	72 h	pEC50	6.70
CO/C=C(/C(=O)OC)c1ccccc1Oc1cc(Oc2ccccc2C#N)ncn1	Rhizoctonia solani	microbial growth			EC50	> 50 µg/mL

Some of these lines once more:
SMILES	tested on	assay	test system	setting	measurement	value
CC(c1ccc(OC(F)(F)F)cc1)c1nn2c(-c3cccs3)nnc2s1 (centres unmarked)	Plasmodium falciparum	parasite growth, SYBR Green	3D7	72 h	pEC50	6.77
OC(Cn1cncn1)(Cn1cncn1)c1ccc(F)cc1F	Candida albicans	microbial killing, broth dilution	58288	48 h	MFC	> 64 µM
CC(=O)c1c(O)c(C)c(O)c(Cc2c(O)c3c(c(C(=O)/C=C/c4ccccc4)c2O)OC(C)(C)C=C3)c1O	Betacoronavirus 1	viral replication	MRC5, OC43		pIC50	5.44
CO/C=C(/C(=O)OC)c1ccccc1Oc1cc(Oc2ccccc2C#N)ncn1	Rhizoctonia solani	microbial growth			EC50	> 50 µg/mL
COc1ccccc1NC(=O)CSc1nc2cccnc2n1-c1ccccc1OC	Plasmodium falciparum	parasite growth, SYBR Green	3D7	72 h	pEC50	6.54
[2H]c1c([2H])c([C@]2([2H])CCCN2C(=O)C(C)(C)Oc2ccc3cn[nH]c3c2)c([2H])c([2H])c1C([2H])([2H])[2H]	MAP3K5 (Homo sapiens, UniProt Q99683)	binding, competition with immobilised ligand		1 µM	remaining binding	85%
